Published values collected from several papers.
Each numbered part is a random draw from the data of one study; scales do not carry over between parts. Changes are numbered by the printed parent chain.

Sample 1
Molecule: PhoQ, residues 284 288 289 292 302 303 SLSLLA
Technique: Sort-seq
Refers to: YFP reporter
Sample: E. coli
Notes: PhoQ-PhoP variant library
Added: 10 µM Mg2+
Relative to: high Mg2+ state
Reading: higher = stronger signaling
Endpoint: fold induction
PhoP, residues 12 14 15 18 19 TPWTL (Escherichia coli, UniProt P23836): 21.1
PhoP, residues 12 14 15 18 19 NFFVT (Escherichia coli, UniProt P23836): 2.16
PhoP, residues 12 14 15 18 19 LHHYF (Escherichia coli, UniProt P23836): 10

Sample 2
Target: Sal-like protein 4, full length isoform A (SALL4, Homo sapiens, UniProt Q9UJQ4, residues 1-1053)
UniProt Q9UJQ4, sequence (whole entry, looked up): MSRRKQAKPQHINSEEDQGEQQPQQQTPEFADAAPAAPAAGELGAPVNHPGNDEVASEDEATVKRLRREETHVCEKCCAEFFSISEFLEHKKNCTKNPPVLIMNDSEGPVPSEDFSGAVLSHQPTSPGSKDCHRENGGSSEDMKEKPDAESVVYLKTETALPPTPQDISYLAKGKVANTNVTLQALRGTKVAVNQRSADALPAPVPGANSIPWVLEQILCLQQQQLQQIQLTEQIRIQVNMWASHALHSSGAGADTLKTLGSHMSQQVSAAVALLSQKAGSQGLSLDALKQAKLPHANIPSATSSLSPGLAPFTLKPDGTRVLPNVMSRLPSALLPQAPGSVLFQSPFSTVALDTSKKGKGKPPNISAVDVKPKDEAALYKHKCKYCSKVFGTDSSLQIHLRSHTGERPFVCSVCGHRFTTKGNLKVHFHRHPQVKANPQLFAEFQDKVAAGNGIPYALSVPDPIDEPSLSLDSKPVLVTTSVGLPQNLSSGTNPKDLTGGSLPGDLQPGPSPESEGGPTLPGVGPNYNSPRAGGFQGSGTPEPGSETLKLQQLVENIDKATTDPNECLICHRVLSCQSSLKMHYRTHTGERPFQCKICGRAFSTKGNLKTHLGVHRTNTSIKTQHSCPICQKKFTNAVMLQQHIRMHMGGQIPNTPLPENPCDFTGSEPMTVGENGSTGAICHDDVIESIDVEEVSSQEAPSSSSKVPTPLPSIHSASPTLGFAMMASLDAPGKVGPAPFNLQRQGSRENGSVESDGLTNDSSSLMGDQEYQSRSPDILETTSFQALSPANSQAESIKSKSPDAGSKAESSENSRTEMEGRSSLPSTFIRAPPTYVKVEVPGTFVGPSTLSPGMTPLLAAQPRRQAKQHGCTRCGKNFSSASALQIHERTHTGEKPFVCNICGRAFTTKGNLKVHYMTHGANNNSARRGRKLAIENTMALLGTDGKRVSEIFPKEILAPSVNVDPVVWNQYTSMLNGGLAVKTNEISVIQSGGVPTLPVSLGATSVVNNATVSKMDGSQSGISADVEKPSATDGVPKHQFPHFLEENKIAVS
Technique: universal PBM
Form: double-stranded DNA, one strand shown
Sample: in vitro
Concentration: 600 nM
Notes: 8-mer, flanks averaged, mean of replicates
Reading: higher = stronger binding
Endpoint: E-score
ACATAGCC: -0.0832
ACTTGTTC: 0.0711
GACTAACA: 0.13
GACGGTTA: -0.0712
CCTGGTCC: -0.399
CAGAAAAA: 0.0644
ATCGGTAC: -0.0625
AGTTTACC: 0.0646
ACTACACA: 0.204
GAATTATA: 0.357
AACTTCGG: 0.0153
AAACGGCT: -0.1
GATCTGCA: -0.113
CCCCCGAG: -0.261
AATGCATT: 0.308
TCATGGGA: 0.00834
CCCAGACC: -0.23
AATCTGGA: 0.119
CTAACGAG: 0.0734
AGGTGCGA: -0.169
ATTGTCGA: 0.0795
GCTATTAC: 0.257
AAGAGTTC: -0.155
AGGCCTAC: -0.143
CAGCTGCG: -0.317

Sample 3
Target: ABI1, truncated, D143A, DHFR fusion (Arabidopsis thaliana)
Technique: DHFR PCA, deep sequencing
Sample: yeast
Notes: methotrexate growth selection, single substitutions
Added: (+)-ABA 17 µM
Relative to: wild-type fitted maximum
Reading: higher = stronger binding
Endpoint: relative binding score
Parent: PYL1, truncated, DHFR fusion (Arabidopsis thaliana); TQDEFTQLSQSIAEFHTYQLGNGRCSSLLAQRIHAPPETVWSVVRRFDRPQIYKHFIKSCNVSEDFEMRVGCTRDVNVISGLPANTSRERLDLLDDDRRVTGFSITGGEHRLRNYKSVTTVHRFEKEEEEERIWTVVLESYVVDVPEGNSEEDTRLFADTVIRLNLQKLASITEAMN
K54L: -8.18%
V161N: 4.6%
M68L: 95.3%
I105G: -14.2%
S80R: 6.06%
E109Q: 84.6%
R46Q: 87.2%
N61C: 89.8%
T6R: 86.4%
E131A: 86.4%
Y141K: -5.19%
R49P: -2.69%
T106Y: 81.5%
H110M: 13.6%
E67G: 66.8%
F15T: 13.1%
D95I: 34.7%
D153V: 0.521%
Q31L: 17%
C60R: 7.04%
D92H: 8.48%
S87Q: 21.6%

Sample 4
Target: CCNA1, cyclin fold, Cln2 fusion (human)
Technique: yeast growth competition, sequencing
Sample: yeast
Notes: strong parent motif
Relative to: not given
Reading: higher = stronger binding
Endpoint: normalised enrichment score
Parent: E2F1 docking peptide (human); PPVKRRLDFETDH; partner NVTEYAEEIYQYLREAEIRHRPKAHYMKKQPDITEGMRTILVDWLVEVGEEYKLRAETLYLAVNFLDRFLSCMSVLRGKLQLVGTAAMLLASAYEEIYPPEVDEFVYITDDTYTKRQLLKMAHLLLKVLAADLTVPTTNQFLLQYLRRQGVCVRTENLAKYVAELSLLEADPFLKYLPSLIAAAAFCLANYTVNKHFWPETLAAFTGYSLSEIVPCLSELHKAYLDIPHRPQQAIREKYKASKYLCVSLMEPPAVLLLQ
PPVKRALDFETDH [R6A]: 1.48
PPVKRPLDFETDH [R6P]: 0.444
PPVKRFLDFETDH [R6F]: 0.996
PPVKRGLDFETDH [R6G]: 0.669
PPVKRQLDFETDH [R6Q]: 1.3
PPVKRRLDFEYDH [T11Y]: 1.65
PPVKRRLDFRTDH [E10R]: 1.33
PPVKKRLDFETDH [R5K]: 1.59
PPVKRRLGFETDH [D8G]: 1.36
PKVKRRLDFETDH [P2K]: 2.09
PPVKSRLDFETDH [R5S]: -0.287
PPVKRRLDFMTDH [E10M]: 1.86
PPVKRYLDFETDH [R6Y]: 0.693
PPVKRRLDGETDH [F9G]: 0.131
PPVKQRLDFETDH [R5Q]: 0.424
PPVKTRLDFETDH [R5T]: 0.294
PPVKRRLDFETFH [D12F]: 1.93
